Measurements from different studies.
A part holds a random share of what one study measured. Changes are numbered by the printed parent chain.
Chain of UniProt P29597 (whole entry, looked up): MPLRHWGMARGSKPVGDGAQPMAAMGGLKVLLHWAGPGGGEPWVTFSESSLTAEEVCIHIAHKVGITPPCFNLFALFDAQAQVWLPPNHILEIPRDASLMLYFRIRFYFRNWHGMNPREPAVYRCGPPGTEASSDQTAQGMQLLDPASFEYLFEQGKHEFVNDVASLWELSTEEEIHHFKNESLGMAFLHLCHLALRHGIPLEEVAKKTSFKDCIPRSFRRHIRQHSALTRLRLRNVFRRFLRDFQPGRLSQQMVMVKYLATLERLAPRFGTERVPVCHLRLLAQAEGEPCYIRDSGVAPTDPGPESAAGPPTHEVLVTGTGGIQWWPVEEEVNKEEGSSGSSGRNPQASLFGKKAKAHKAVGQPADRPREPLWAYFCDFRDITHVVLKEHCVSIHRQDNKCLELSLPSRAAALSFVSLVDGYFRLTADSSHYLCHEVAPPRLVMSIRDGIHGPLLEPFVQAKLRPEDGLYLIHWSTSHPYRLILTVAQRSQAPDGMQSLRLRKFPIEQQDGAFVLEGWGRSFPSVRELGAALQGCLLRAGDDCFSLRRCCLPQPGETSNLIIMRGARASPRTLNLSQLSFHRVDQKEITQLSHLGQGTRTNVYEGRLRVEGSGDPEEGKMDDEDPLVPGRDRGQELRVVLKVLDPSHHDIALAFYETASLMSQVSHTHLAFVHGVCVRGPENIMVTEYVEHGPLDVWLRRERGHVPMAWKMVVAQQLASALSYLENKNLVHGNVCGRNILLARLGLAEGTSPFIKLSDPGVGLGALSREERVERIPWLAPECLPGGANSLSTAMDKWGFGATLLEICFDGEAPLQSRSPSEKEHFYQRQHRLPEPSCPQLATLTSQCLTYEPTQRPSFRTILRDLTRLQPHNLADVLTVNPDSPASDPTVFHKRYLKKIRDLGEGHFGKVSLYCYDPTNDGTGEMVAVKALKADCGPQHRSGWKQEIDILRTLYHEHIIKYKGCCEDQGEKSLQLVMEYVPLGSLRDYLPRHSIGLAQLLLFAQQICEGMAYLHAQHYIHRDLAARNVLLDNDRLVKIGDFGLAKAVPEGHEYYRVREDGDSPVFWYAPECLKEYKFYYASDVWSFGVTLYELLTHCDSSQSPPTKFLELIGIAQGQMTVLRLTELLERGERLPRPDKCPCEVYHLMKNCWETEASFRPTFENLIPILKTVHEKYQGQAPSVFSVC
Chain of UniProt Q00536 (whole entry, looked up): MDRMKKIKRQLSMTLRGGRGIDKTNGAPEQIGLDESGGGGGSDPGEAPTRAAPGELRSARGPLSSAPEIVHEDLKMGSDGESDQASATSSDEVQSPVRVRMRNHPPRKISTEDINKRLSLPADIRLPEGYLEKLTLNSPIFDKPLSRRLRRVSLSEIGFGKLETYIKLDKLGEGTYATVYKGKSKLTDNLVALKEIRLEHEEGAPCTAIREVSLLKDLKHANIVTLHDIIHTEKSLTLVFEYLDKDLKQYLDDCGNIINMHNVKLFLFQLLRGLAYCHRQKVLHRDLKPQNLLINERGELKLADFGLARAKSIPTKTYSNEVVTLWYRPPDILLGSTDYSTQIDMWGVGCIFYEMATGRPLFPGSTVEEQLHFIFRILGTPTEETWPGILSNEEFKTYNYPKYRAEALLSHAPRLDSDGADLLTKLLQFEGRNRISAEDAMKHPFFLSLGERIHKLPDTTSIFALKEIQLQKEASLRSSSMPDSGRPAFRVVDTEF
Chain of UniProt Q9H093 (whole entry, looked up): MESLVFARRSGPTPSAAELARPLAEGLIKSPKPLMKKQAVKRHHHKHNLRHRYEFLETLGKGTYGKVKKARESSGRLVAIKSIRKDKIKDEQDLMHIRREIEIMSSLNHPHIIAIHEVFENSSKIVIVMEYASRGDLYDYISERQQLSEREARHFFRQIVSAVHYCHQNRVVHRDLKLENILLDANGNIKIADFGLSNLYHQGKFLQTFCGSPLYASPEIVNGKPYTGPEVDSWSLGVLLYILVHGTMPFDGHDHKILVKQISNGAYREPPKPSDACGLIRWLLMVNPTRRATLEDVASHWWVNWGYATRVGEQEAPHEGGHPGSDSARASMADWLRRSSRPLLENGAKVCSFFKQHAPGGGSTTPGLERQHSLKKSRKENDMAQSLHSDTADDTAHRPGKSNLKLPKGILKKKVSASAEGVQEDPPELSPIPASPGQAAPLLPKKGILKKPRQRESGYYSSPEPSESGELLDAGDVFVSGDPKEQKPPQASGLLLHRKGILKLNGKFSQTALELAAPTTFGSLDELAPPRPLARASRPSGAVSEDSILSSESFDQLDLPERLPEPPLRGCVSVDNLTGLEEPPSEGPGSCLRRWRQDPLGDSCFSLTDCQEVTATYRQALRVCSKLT
Chain of UniProt Q9UF33 (whole entry, looked up): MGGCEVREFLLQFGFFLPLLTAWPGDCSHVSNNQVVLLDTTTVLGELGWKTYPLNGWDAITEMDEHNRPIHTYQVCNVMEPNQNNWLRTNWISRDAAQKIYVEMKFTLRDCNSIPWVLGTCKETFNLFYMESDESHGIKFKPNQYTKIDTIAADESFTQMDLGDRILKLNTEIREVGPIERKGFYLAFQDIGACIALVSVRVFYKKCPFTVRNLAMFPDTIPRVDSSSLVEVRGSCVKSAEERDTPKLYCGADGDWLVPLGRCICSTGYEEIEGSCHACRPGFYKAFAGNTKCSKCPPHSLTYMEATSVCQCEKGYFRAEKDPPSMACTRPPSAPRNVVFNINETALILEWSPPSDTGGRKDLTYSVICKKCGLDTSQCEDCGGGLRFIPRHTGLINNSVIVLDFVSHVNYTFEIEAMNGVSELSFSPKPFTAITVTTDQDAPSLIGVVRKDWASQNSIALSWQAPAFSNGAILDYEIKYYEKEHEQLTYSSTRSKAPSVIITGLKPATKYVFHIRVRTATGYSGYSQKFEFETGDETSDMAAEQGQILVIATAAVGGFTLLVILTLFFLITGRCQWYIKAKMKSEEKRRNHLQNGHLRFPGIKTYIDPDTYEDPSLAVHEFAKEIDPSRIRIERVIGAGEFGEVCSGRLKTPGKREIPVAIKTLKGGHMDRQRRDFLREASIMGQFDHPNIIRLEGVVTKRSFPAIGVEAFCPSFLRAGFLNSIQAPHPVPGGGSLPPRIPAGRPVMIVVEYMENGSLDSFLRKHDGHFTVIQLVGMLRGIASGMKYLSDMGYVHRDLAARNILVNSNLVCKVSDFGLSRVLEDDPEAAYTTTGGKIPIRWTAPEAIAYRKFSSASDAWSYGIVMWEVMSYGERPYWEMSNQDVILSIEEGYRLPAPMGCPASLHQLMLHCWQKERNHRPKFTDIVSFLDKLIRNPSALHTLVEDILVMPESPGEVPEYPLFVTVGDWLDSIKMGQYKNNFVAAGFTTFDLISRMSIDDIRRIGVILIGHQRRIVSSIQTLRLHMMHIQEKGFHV
Chain of UniProt O14936 (whole entry, looked up): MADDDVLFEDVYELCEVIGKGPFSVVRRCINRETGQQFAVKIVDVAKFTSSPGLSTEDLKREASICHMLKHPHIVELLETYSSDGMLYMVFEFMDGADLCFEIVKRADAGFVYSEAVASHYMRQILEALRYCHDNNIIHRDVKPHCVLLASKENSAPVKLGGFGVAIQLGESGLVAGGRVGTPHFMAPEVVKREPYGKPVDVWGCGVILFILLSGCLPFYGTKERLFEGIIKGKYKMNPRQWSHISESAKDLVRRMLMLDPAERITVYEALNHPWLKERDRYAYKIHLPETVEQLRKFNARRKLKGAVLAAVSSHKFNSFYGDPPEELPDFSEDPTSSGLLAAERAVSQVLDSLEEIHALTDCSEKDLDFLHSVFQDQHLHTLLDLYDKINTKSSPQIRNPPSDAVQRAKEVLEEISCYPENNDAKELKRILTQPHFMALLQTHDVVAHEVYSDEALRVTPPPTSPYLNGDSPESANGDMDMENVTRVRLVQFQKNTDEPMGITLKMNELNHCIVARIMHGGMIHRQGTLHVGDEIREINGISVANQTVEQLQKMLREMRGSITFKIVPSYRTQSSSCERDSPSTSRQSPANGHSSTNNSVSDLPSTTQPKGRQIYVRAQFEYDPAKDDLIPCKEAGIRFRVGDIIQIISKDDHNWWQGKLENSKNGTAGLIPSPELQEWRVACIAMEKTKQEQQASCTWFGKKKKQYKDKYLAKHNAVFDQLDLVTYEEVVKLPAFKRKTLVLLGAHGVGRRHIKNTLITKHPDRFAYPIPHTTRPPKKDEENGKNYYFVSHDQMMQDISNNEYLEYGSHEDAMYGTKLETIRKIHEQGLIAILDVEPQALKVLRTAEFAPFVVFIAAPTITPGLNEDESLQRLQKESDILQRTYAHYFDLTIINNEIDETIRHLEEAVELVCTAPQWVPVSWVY
Chain of UniProt Q9Y2U5 (whole entry, looked up): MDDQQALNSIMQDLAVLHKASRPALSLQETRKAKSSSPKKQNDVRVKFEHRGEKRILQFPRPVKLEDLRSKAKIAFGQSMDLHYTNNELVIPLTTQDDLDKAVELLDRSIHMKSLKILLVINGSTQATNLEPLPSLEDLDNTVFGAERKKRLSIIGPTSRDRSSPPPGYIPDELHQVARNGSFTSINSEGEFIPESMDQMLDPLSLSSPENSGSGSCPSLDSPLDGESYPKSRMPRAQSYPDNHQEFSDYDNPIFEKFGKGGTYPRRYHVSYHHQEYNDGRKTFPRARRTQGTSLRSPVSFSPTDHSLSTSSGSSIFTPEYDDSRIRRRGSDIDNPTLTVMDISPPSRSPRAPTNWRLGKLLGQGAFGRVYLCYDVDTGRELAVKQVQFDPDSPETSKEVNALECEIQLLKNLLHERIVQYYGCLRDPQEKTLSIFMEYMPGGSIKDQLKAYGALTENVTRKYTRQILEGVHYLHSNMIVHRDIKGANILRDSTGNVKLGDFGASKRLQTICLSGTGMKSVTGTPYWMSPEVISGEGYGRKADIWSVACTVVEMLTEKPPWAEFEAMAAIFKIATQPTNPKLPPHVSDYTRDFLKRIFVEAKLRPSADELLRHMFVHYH

Set 1 — read-out: enzyme activity; tested at: 5 µM; baseline: untreated control
SMILES: O=C(Nc1cnn(-c2csc(C(=O)NC3COC3)c2)c1)Nc1c(F)cccc1Cl
For EPHA1 (Homo sapiens, UniProt P21709): remaining activity read 87.5%.
For KIT (Homo sapiens, UniProt P10721): remaining activity read 93.9%.
For MAP2K6 (Homo sapiens, UniProt P52564): remaining activity read 85%.

Set 2 — technique: competition with immobilised ligand; tested at: 1 µM
Compound: Cc1cc(NC(=O)c2cccc(S(F)(F)(F)(F)F)c2)cc(-n2ccn3nc(-c4cccnc4)cc23)c1
The remaining binding was 52.7% (MAP3K2 (Homo sapiens, UniProt Q9Y2U5); cell-free assay).
For EPHA6 (Homo sapiens, UniProt Q9UF33); cell-free assay: remaining binding read 100%.
For CASK (Homo sapiens, UniProt O14936); cell-free assay: remaining binding read 68.1%.
The remaining binding was 100% (PRKD2 (Homo sapiens, UniProt Q9BZL6); cell-free assay).
For CDK16 (Homo sapiens, UniProt Q00536); cell-free assay: remaining binding read 100%.
ERBB2 (Homo sapiens, UniProt P04626); cell-free assay — remaining binding: 100%.
For WNK2 (Homo sapiens, UniProt Q9Y3S1); cell-free assay: remaining binding read 100%.
For PRKCH (Homo sapiens, UniProt P24723); cell-free assay: remaining binding read 100%.
Myosin-IIIb (MYO3B, Homo sapiens, UniProt Q8WXR4); cell-free assay — remaining binding: 73.8%.
For MAP2K5 (Homo sapiens, UniProt Q13163); cell-free assay: remaining binding read 35.9%.
Tyrosine-protein kinase ABL1, phosphorylated (ABL1, Homo sapiens, UniProt P00519, E255K); binding — remaining binding: 66.7%.
It gave 100% for remaining binding (ITK (Homo sapiens, UniProt Q08881); cell-free assay).
For Non-receptor tyrosine-protein kinase TYK2, JH2 (TYK2, Homo sapiens, UniProt P29597); cell-free assay: remaining binding read 100%.
For MARK2 (Homo sapiens, UniProt Q7KZI7); cell-free assay: remaining binding read 100%.
The remaining binding was 100% (PHKG2 (Homo sapiens, UniProt P15735); cell-free assay).
It gave 100% for remaining binding (GRK4 (Homo sapiens, UniProt P32298); cell-free assay).
For MAPK10 (Homo sapiens, UniProt P53779); cell-free assay: remaining binding read 64.9%.
It gave 100% for remaining binding (NUAK2 (Homo sapiens, UniProt Q9H093); cell-free assay).

Set 3 — technique: RNAcompete; form: RNA; sample: in vitro; tested at: 20 nM; notes: 7-mer, probes averaged, single round; baseline: mean of 7-mers; direction: higher = stronger binding
Target: PABPC1L2, full length, GST fusion (mouse, UniProt A0ABA7IW68)
Residues (chain): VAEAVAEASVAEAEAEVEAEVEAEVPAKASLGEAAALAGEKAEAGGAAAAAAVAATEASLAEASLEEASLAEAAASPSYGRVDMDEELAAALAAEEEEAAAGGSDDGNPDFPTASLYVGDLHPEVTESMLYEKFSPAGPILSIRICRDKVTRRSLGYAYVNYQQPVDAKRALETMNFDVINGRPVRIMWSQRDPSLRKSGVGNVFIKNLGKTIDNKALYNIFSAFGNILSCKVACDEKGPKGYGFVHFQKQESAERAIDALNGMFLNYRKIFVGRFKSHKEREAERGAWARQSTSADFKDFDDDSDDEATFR
For `ACAUGGC`, the 7-mer Z-score was 0.153.
`UAAUACG` gave a 7-mer Z-score of -0.121.
The 7-mer Z-score of `AGAUGUA` is reported as -0.13.
The 7-mer Z-score of `CGGGUUA` is reported as 0.0152.
With `UUGGAUG` the 7-mer Z-score was -0.139.
With `CUGACAG` the 7-mer Z-score was -0.199.
With `CGACGGU` the 7-mer Z-score was -0.173.
With `GCUACCA` the 7-mer Z-score was -0.108.

Set 4 — technique: DHFR PCA, deep sequencing; sample: yeast; together with: (+)-ABA 0.032 µM; baseline: wild-type fitted maximum; direction: higher = stronger binding
Target: ABI1, truncated, D143A, DHFR fusion (Arabidopsis thaliana)
Notes: methotrexate growth selection, single substitutions
Parent: PYL1, truncated, DHFR fusion (Arabidopsis thaliana); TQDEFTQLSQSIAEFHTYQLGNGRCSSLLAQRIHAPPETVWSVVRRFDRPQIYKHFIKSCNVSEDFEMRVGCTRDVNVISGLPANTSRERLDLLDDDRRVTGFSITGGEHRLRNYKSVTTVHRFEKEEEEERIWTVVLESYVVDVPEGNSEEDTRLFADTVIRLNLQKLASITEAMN
`T1Q`: “relative binding score” 21.9%.
`F56L` — result for “relative binding score”: -3.47%.
Under “relative binding score”, `N114E` is recorded as -7.16%.
Under “relative binding score”, `D144P` is recorded as -6.23%.
`G21L`: “relative binding score” 0.637%.
`N165S` — result for “relative binding score”: 6.77%.
For `T101G`, “relative binding score” read -5.18%.
`R111F` — result for “relative binding score”: 13.7%.

Single results of other studies
The remaining compound of `COCCOCC(OC(=O)c1ccc(NC(N)=O)cc1)C(C)(C)C` (centres unmarked) is reported as 11.4% (mouse, microsomes or S9; 2 µM, 0.5 h).

Some of these lines once more (set 3):
`UAAUACG` gave a 7-mer Z-score of -0.121.
With `CGACGGU` the 7-mer Z-score was -0.173.
For `ACAUGGC`, the 7-mer Z-score was 0.153.
With `CUGACAG` the 7-mer Z-score was -0.199.
